Measurements of several laboratories.
A part holds a random share of what one study measured.

Sample 1 — technique: aptamer microarray, sandwich; form: DNA with 2'F-ANA; sample: in vitro; concentration: 200 nM; together with: Cy3 exosite-II aptamer, 400 nM; direction: higher = stronger binding; oligonucleotide: GGTTGGTGTGGTTGG
Target: Prothrombin, mature alpha-thrombin (F2, Homo sapiens, UniProt P00734)
Setting: whole 15-mer aptamer, many near background
| Modification | mean fluorescence intensity [a.u.] |
| --- | --- |
| 2'F-ANA at 5 8 9 11 14 | 64.4 |
| 2'F-ANA at 1 3 4 6 8 11 12 14 | 116 |
| 2'F-ANA at 1 3 4 5 6 7 8 9 12 13 14 | 85.9 |
| 2'F-ANA at 1 2 3 4 5 6 7 8 9 10 12 13 | 59.4 |
| 2'F-ANA at 1 4 5 6 8 9 11 12 14 | 45.2 |
| 2'F-ANA at 3 5 6 8 9 10 14 | 52.6 |
| 2'F-ANA at 1 3 4 5 6 8 9 12 14 15 | 53.1 |
| 2'F-ANA at 1 3 4 8 10 12 13 | 71.3 |

Sample 2 — technique: RNAcompete; form: RNA; sample: in vitro; concentration: 20 nM; setting: 7-mer, probes averaged, single round; reference: mean of 7-mers; direction: higher = stronger binding
Target: PABPC1L2, full length, GST fusion (mouse, UniProt A0ABA7IW68)
Residues (chain): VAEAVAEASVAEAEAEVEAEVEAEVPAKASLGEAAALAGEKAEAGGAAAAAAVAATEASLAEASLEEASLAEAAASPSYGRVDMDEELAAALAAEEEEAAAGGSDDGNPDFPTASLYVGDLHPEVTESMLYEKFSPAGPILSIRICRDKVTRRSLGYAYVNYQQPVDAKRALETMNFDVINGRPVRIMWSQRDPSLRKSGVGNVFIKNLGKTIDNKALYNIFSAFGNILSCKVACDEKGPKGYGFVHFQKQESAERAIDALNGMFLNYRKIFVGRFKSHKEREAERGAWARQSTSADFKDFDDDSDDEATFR
| Oligonucleotide | 7-mer Z-score |
| --- | --- |
| GUAUCUU | -0.273 |
| ACCUAAU | -0.253 |
| CAUCAGG | 0.178 |
| GAUGCCU | -0.211 |
| ACCCCGU | -0.367 |
| CUGGAUC | -0.117 |
| CACUUAA | -0.0283 |
| CUCCGGC | -0.385 |

Sample 3 — technique: protein-binding microarray; form: double-stranded DNA, one strand shown; sample: in vitro; concentration: 250 nM; setting: 60-bp whole probe; together with: salmon DNA 0.4 mg/ml; reference: random background probes; direction: higher = stronger binding; shared flanks, not repeated: GCCTAGCAC … GTCTTGATTCGCTTGACGCTGCTG
Target: Interferon regulatory factor 7, full length, phosphomimetic (IRF7, Homo sapiens, UniProt Q92985, residues 1-503, S101K/S471D/S472D/S475D/S476D/S477D/S483D/S484D/S487D)
UniProt Q92985, sequence (whole entry, unmodified, looked up): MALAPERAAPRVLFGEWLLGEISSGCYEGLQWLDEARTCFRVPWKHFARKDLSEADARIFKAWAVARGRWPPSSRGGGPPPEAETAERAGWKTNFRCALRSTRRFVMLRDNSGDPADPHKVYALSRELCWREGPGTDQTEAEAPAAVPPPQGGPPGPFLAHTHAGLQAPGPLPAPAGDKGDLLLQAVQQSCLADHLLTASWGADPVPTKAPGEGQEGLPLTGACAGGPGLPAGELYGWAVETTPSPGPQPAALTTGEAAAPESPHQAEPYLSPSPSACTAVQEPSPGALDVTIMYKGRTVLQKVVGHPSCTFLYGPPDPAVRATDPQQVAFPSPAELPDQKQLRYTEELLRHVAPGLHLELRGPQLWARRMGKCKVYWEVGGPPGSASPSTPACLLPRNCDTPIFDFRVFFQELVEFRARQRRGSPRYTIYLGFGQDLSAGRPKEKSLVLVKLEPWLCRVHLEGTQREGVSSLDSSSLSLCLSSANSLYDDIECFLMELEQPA
| Oligonucleotide | log fluorescence |
| --- | --- |
| TTAGGTTTCGACGTTCGGTTAGTGCTA | 4.02 z-score |
| GACGGTTTCGGGTTTCGGAACGTGCTA | 12.7 z-score |
| TCTCCTTTCCAAATACCCTCGTGCTAG | 1.75 z-score |
| GACGGACTAGACACTGGGGACGTGCTA | -0.21 z-score |
| TTAGGTTTCGGTCTCGATTAGTGCTAG | 8.3 z-score |
| GACGGTATCAGTTTCGGGACGTGCTAG | 3.3 z-score |
| CAAGTTACGGAATTTCCCTCTGTGCTA | 1.29 z-score |
| GACGGTTTCCTTTTCCTGTCGTGCTAG | 7.68 z-score |

Further values, each from its own experiment
| SMILES | target | observed | technique | concentration | quantity | result |
| --- | --- | --- | --- | --- | --- | --- |
| Cc1noc([C@H]2C[C@@H](c3ccc(C(F)(F)F)cc3)CN(C(=O)N3CCS(=O)(=O)C3)C2)n1 | Epidermal growth factor receptor (EGFR, Homo sapiens, UniProt P00533) | cell-free assay | competition with immobilised ligand | 1 µM | remaining binding | 100% |

Repeated from above (sample 3):
| Oligonucleotide | log fluorescence |
| --- | --- |
| TCTCCTTTCCAAATACCCTCGTGCTAG | 1.75 z-score |
| GACGGACTAGACACTGGGGACGTGCTA | -0.21 z-score |
| TTAGGTTTCGGTCTCGATTAGTGCTAG | 8.3 z-score |
| GACGGTATCAGTTTCGGGACGTGCTAG | 3.3 z-score |
